Measurements of several laboratories.
Protocols differ between the studies behind these lines. “And” joins repeats or separate records; there may be more than shown.
Organism: Pseudomonas aeruginosa

O=C(Cc1ccc(Br)cc1)N[C@H]1CCOC1=O — elastase production (elastin-Congo red; PAO1 wild type; 100 µM, 20 h): 73%
CC[C@H](C)CCCCC(=O)N[C@@H](CCN)C(=O)N[C@H](C(=O)N[C@@H](CCN)C(=O)N[C@H]1CCNC(=O)[C@H]([C@@H](C)O)NC(=O)[C@H](CCN)NC(=O)[C@H](CCN)NC(=O)[C@H](CC(C)C)NC(=O)[C@@H](CC(C)C)NC(=O)[C@H](CCN)NC1=O)[C@@H](C)O — bacterial count (PAO1; 0 min): 7.9 log CFU and 7.68 log CFU
CC(CCCOC(=O)CCC[N+](C)(C)C)C1CCC2C3CCC4CC(OC(=O)CCC[N+](C)(C)C)CCC4(C)C3CCC12C (centres unmarked) — inhibition zone (microbial growth, disc diffusion; ATCC27853; 250 µg/disc, 24 h): 10 mm
C=CCOc1c(C)c(OC)c(C(=O)/C=C/c2ccccc2)c(OCC=C)c1C — MBC (microbial killing, broth dilution; ATCC27853): > 5000 µg/mL
COc1cc(Cc2cnc(N)nc2N)cc(OC)c1OC.O=c1[nH]cc(F)c(=O)[nH]1 — MBC (broth microdilution; 48 h): 16 µg/mL
CCCCCCCCCC(=O)CC(=O)Nc1ccccc1 — elastase production (elastin-Congo red; PAO1 wild type; 100 µM, 20 h; reference: DMSO): 68%
CC(C)[C@H]1NC(=O)[C@H](Cc2ccccc2)NC(=O)[C@@H](C(C)C)NC(=O)[C@@H](C)NC(=O)[C@H](CO)NC(=O)[C@@H](Cc2c[nH]c3ccccc23)NC(=O)[C@@H](CO)NC1=O — MIC90 (broth dilution): > 50 µM
CC(C)c1ccc2c(c1)CCC1C(C)(CN(CC(O)C[N+](C)(C)C)CC(O)C[N+](C)(C)C)CCCC21C (centres unmarked) — inhibition zone (microbial growth, disc diffusion; ATCC27853; 125 µg/disc, 24 h): 9 mm
CC(NC(=O)c1ccccc1)C(CCCCCCCCCCCCCCC(=O)CCCCCCCC(OC(=O)c1ccccc1)C(C)NC(=O)c1ccccc1)OC(=O)c1ccccc1 (centres unmarked) — growth inhibition (resazurin; ATCC 27853; 50 µM): 7%
O=c1c(O)ccccc1O — MIC80 (microbial growth, broth dilution; ATCC27853): > 100 µM
CCCC(O)c1nn[nH]c1-c1ccc(O)c(OC)c1 (centres unmarked) — biofilm formation (static biofilm; PA14; 10 µM, 24 h, static; reference: DMSO): 74%
CCCC(=O)Oc1c(C)c(OC)c2c(/C=C/c3ccccc3)c(CC)c(=O)oc2c1C — MBC (microbial killing, broth dilution; ATCC27853): > 5000 µg/mL
Cc1cccc(C(=O)Sc2cccccc2=O)c1 — MIC80 (microbial growth, broth dilution; ATCC27853): > 71.4 µM
O=C(CCCOc1cccc(Br)c1)N[C@H]1CCSC1=O — elastase production (elastin-Congo red; PAO1 wild type; 100 µM, 20 h; reference: DMSO): 190%
CCCCCCCCCCCC(=O)Oc1c(C)c(OC)c2c(/C=C/c3ccccc3)c(CCCCCCCCCC)c(=O)oc2c1C — MBC (microbial killing, broth dilution; ATCC27853): > 5000 µg/mL
CCCCCCCCCC(=O)CC(=O)Nc1cccc(OC)c1 — elastase production (elastin-Congo red; PAO1 wild type; 100 µM, 20 h): 12%
CCCCCC(=O)Oc1c(C)c(OC)c2c(c1C)OC(=O)[C@@H](CCCC)[C@]2(O)/C=C/c1ccccc1 (relative stereo) — MBC (microbial killing, broth dilution; ATCC27853): > 5000 µg/mL
O=C(Oc1cccccc1=O)c1ccc([N+](=O)[O-])cc1 — MIC80 (microbial growth, broth dilution; ATCC27853): > 71.4 µM
O=C(Nc1ccccc1NC(=O)c1cccc(Cl)c1)c1cccc(Cl)c1 — elastase production (elastin-Congo red; PAO1 wild type; 100 µM, 20 h; reference: DMSO): 69.8%
COc1c(C)c(OC(=O)c2ccccc2)c(C)c(OC(=O)c2ccccc2)c1C(=O)/C=C/c1ccccc1 — inhibition zone (microbial growth, well diffusion; ATCC27853; 5 µg/mL): 10 mm
CC(=O)N[C@@H](CCCCN)C(=O)N1CCC[C@H]1C(=O)N[C@H](C(=O)N[C@@H](Cc1ccccc1)C(=O)N[C@@H](CCC(N)=O)C(=O)N[C@@H](Cc1ccccc1)C(=O)N[C@@H](CC(C)C)C(=O)N[C@@H](Cc1ccccc1)C(=O)N[C@@H](Cc1c[nH]cn1)C(=O)N[C@@H](CCC(=O)O)C(N)=O)C(C)C — PI-permeable cells (flow cytometry; PAO1, hydrogel; concentration not given, 4 h, pH 5.5, 37 °C): 11.3%
O=C(CCc1ccc(Br)cc1)N[C@H]1CCOC1=O — elastase production (elastin-Congo red; PAO1 wild type; 100 µM, 20 h; reference: DMSO): 94.9%
CCCC(=O)C#Cc1ccc(F)c(F)c1 — IC50 (biofilm formation; PA14; static): 25 µM
CCCCCCCCCC(=O)Oc1c(C)c(OC)c2c(/C=C/c3ccccc3)c(CCCCCCCC)c(=O)oc2c1C — MBC (microbial killing, broth dilution; ATCC27853): > 5000 µg/mL
O=C(CCCCCCCCCN=C=S)CC(=O)N[C@H]1CCOC1=O — elastase production (elastin-Congo red; PAO1 wild type; 100 µM, 20 h): 291%
CCCCCCCCCC(=O)Oc1c(C)c(OC)c2c(c1C)OC(=O)C(CCCCCCCC)C2(O)C=Cc1ccccc1 (centres unmarked) — MBC (microbial killing, broth dilution; ATCC27853): > 5000 µg/mL
CCCCCCCCCNC(=O)CC(=O)c1ccccc1 — elastase production (elastin-Congo red; PAO1 wild type; 100 µM, 20 h): 15%
COc1c(C)c(OS(=O)(=O)c2ccccc2)c(C)c2c1C(=O)CC(c1ccccc1)O2 (centres unmarked) — MBC (microbial killing, broth dilution; ATCC27853): > 5000 µg/mL
CN(C)S(=O)(=O)c1ccc(S(=O)(=O)N2CCC(n3c(=O)[nH]c4ccccc43)CC2)cc1 — bacterial load (CIP 27853 wild type, Bombyx eri larvae; 2.78 µg/larva): 4.84 log CFU/larva and 5.37 log CFU/larva and 4.4 log CFU/larva and 4.25 log CFU/larva and 3.58 log CFU/larva
